# Results collected from several papers.
# Numbered parts are unrelated; each lists some results of a single study.
# Sequence of UniProt P42336 (whole entry, unmodified, looked up): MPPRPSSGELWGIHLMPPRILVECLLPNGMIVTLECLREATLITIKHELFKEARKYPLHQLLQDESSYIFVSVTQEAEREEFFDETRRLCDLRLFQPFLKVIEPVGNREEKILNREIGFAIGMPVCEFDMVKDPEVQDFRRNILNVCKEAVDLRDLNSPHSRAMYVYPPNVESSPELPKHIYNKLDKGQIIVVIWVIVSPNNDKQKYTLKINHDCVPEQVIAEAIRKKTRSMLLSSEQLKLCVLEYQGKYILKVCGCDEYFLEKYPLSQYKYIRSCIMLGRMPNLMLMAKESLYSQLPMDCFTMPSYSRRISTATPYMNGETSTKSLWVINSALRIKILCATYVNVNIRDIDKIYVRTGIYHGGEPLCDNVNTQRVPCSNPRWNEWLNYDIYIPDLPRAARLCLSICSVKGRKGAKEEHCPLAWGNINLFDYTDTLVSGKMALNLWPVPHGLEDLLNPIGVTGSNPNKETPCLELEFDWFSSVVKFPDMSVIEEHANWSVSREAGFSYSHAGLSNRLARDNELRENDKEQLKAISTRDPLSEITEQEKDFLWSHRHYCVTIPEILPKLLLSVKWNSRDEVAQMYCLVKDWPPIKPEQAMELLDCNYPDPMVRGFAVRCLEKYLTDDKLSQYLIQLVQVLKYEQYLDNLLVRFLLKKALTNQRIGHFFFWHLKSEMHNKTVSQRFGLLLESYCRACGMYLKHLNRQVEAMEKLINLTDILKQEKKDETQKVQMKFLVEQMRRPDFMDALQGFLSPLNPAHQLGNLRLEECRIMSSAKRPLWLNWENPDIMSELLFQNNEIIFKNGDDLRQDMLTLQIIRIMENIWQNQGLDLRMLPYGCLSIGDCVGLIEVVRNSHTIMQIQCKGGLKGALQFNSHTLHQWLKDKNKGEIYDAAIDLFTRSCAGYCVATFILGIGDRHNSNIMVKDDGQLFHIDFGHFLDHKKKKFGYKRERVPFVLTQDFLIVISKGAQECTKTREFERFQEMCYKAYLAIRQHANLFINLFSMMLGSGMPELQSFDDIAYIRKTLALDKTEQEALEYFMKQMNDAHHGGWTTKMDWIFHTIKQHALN
# Sequence of UniProt Q15835 (whole entry, looked up): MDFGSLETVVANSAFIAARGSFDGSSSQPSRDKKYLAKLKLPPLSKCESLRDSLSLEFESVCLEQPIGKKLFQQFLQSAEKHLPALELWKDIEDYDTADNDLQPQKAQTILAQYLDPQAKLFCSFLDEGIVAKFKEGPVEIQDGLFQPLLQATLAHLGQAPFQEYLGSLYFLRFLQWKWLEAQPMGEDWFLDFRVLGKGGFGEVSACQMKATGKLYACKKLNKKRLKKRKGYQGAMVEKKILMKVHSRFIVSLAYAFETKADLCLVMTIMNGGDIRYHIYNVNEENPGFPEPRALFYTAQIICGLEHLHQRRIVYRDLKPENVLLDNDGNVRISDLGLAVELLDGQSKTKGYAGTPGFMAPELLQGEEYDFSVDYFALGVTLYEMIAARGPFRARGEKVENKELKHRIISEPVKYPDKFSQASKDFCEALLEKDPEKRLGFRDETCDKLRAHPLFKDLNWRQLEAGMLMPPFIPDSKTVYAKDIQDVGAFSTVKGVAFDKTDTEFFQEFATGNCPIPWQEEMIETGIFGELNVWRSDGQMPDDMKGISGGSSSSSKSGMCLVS
# Sequence of UniProt O43318 (whole entry, looked up): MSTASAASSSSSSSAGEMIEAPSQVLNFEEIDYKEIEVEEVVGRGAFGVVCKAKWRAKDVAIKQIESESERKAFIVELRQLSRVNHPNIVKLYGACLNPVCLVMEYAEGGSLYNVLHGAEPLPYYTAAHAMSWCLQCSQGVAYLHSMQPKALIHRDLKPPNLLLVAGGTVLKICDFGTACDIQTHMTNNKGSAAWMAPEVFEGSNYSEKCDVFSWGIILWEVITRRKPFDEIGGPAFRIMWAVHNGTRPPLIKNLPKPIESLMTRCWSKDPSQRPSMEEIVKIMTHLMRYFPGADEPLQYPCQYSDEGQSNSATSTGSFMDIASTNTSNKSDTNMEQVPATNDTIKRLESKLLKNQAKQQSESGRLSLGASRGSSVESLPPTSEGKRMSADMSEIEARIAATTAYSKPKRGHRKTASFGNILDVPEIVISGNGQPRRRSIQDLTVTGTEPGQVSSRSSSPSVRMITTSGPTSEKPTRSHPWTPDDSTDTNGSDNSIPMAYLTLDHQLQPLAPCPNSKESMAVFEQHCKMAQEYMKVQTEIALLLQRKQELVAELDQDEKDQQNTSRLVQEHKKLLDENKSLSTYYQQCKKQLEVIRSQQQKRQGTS
# Sequence of UniProt Q8IVW4 (whole entry, looked up): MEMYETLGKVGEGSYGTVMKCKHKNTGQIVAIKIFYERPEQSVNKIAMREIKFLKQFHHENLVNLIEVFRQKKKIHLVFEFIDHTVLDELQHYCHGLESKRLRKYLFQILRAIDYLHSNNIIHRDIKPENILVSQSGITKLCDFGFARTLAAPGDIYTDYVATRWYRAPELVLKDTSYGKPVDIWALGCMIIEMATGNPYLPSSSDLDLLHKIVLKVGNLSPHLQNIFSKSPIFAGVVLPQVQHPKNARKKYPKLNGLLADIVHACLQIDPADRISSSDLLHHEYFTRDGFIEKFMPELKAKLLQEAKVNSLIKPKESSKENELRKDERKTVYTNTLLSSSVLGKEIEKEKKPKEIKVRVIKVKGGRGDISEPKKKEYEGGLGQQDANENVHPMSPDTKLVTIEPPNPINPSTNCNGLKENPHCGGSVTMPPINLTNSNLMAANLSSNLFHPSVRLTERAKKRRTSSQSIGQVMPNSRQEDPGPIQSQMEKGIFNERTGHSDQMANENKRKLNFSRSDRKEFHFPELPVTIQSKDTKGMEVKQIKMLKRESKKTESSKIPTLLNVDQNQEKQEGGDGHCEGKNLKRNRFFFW

# Block 1
# Host: human
# Matrix: microsomes or S9
# Concentration: 2 µM
# Time: 0.5 h
SMILES,remaining compound [%]
CN(C)S(=O)(=O)c1cc2c(cc1NC1CCCC1)Oc1ccccc1NC2=O,> 99
CCCN1C(=O)C2(C(C(=O)c3ccc4c(c3)CC(C)O4)=C(O)C(=O)N2CC2CCCO2)c2ccccc21 (stereo not shown),81.2
Nc1cc(-c2ccc(Br)cc2)nn1CC1CCCCC1,23.8
Cc1cc(NC(=O)c2cc(C(=O)Nc3cc(C)n(C(C)C)n3)n(C)n2)nn1C(C)C,> 100
CC(Cc1ccccc1)NC(=O)C1CCCNC1=O (stereo not shown),83.9

# Block 2
# Organism: Sarcocystis neurona
# Effect on: parasite growth
# Concentration: 10 µM
# Time: 96 h
# Notes: second screen
# Baseline: untreated
SMILES,log2 fold change
CC(C)(C)NC(=O)[C@H]1CC[C@H]2[C@@H]3CC[C@H]4NC(=O)C=C[C@]4(C)[C@H]3CC[C@]12C,0.06
CC[C@H](C)C(=O)O[C@H]1CCC=C2C=C[C@H](C)[C@H](CC[C@@H]3C[C@@H](O)CC(=O)O3)[C@H]21,0.26
CC(C)OC(=O)CCC/C=C\C[C@@H]1[C@@H](CC[C@@H](O)CCc2ccccc2)[C@H](O)C[C@@H]1O,0.36
CCCN(CCC)S(=O)(=O)c1ccc(C(=O)O)cc1,0.35
Fc1ccc([C@@H]2CCNC[C@H]2COc2ccc3c(c2)OCO3)cc1,0.19
CN(C)CCOC(c1ccc(Cl)cc1)c1ccccn1 (stereo not shown),0.26

# Block 3
# Compound: O=C(O)[C@@H]1[C@@H](Cn2nnc3ccccc3c2=O)CC[C@H]1C(=O)c1ccc(OCCC2CCOCC2)cc1
# Technique: competition with immobilised ligand
# Concentration: 1 µM
target,assay,remaining binding [%]
"Cyclin-dependent kinase-like 3 (CDKL3, Homo sapiens, UniProt Q8IVW4)",binding,98
"Phosphatidylinositol 4,5-bisphosphate 3-kinase catalytic subunit alpha isoform (PIK3CA, Homo sapiens, UniProt P42336, E542K)",cell-free assay,62
"Tyrosine-protein kinase ABL1, phosphorylated (ABL1, Homo sapiens, UniProt P00519, T315I)",cell-free assay,100
"Mitogen-activated protein kinase kinase kinase 7 (MAP3K7, Homo sapiens, UniProt O43318)",cell-free assay,86
"Rhodopsin kinase GRK1 (GRK1, Homo sapiens, UniProt Q15835)",cell-free assay,100

# Block 4
# Target: Dual specificity protein kinase CLK3 (CLK3, Homo sapiens, UniProt P49761)
# Effect on: enzyme activity
# Mode: inhibitor
# Concentration: 0.5 µM
# Baseline: control
# Residues (P49761 1-490): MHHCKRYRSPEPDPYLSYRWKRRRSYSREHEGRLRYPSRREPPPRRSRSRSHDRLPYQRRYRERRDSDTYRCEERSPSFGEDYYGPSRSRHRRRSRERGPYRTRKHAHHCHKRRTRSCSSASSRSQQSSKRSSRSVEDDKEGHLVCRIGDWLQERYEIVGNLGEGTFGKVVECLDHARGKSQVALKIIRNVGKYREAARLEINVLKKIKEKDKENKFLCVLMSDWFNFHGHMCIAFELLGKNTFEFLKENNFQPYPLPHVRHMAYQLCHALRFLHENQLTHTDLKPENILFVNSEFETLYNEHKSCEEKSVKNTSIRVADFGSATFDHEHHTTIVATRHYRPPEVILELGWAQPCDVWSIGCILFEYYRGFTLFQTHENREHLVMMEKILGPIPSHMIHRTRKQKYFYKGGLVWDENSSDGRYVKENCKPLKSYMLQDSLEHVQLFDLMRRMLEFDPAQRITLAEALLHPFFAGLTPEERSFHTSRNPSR
SMILES,remaining activity [%]
Cc1cccc(-c2[nH]c(C(C)(C)C)nc2-c2ccc3c(c2)OCO3)n1,104
CNC(=O)c1cc(Oc2ccc(NC(=O)Nc3ccc(Cl)c(C(F)(F)F)c3)cc2)ccn1,99.3
Nc1ccc2ncnc(NCCc3ccc(Oc4ccccc4)cc3)c2c1,117
Oc1ccc(-c2nc(-c3ccncc3)c(-c3ccc(F)cc3)[nH]2)cc1,101
CCOC(=O)c1c(C)[nH]c(/C=C2\C(=O)Nc3ccccc32)c1C,100
CO[C@H]1C[C@@H]2CC[C@@H](C)[C@@](O)(O2)C(=O)C(=O)N2CCCC[C@H]2C(=O)O[C@H]([C@H](C)C[C@@H]2CC[C@@H](O)[C@H](OC)C2)CC(=O)[C@H](C)/C=C(\C)[C@@H](O)[C@@H](OC)C(=O)[C@H](C)C[C@H](C)/C=C/C=C/C=C/1C,94.4
O=S(=O)(c1cccc2cnccc12)N1CCCNCC1,83.7
COc1cc2nccc(Oc3ccc(NC(=S)NC(=O)c4ccccc4C)cc3)c2cc1OC,93.2
O=C(Nc1cccc(Nc2cc(Nc3cccc(C(F)(F)F)c3)ncn2)c1)C1CC1,102
COc1ccc(CNC(=O)Nc2ncc([N+](=O)[O-])s2)cc1,93
O=C1NC(=O)C(c2cn(CCCO)c3ncccc23)=C1c1cnccn1,67.8
Cn1c2ccccc2c2c3c(c4c5ccccc5n(CCC#N)c4c21)CNC3=O,23.1
Nc1ncnc2n[nH]c(Nc3ccc(F)cc3)c12,112
OCC(O)CCON=C1C(c2c(O)[nH]c3ccccc23)=Nc2ccccc21 (stereo not shown),16.1
C#Cc1cccc(Nc2ncnc3cc(OCCOC)c(OCCOC)cc23)c1,108

# Excerpt of the above (block 3):
target,assay,remaining binding [%]
"Rhodopsin kinase GRK1 (GRK1, Homo sapiens, UniProt Q15835)",cell-free assay,100
"Phosphatidylinositol 4,5-bisphosphate 3-kinase catalytic subunit alpha isoform (PIK3CA, Homo sapiens, UniProt P42336, E542K)",cell-free assay,62
